Measured values gathered from unrelated publications.
A part holds a random share of what one study measured. Substitutions count along the parent as printed.

Study 1
Target: Interferon regulatory factor 7, full length, phosphomimetic (IRF7, Homo sapiens, UniProt Q92985, residues 1-503, S101K/S471D/S472D/S475D/S476D/S477D/S483D/S484D/S487D)
Technique: protein-binding microarray
Molecule type: double-stranded DNA, one strand shown
Matrix: in vitro
Tested at: 250 nM
Setting: 60-bp whole probe
With: salmon DNA 0.4 mg/ml
Reference: random background probes
Reading: higher = stronger binding
Quantity: log fluorescence
All sequences stand within: GCCTAGCAC … GTCTTGATTCGCTTGACGCTGCTG
Residues (chain): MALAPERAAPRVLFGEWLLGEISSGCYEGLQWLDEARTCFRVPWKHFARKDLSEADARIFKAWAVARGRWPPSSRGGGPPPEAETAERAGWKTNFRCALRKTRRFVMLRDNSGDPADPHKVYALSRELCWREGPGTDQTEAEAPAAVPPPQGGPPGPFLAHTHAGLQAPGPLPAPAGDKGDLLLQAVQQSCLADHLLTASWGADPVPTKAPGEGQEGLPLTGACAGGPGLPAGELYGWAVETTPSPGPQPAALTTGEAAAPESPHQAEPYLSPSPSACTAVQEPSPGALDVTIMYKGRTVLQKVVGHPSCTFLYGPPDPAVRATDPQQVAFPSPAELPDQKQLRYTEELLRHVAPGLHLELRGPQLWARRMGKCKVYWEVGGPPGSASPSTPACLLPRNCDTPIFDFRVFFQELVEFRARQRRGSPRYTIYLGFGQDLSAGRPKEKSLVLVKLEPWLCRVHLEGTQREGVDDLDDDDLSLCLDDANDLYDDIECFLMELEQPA
Oligonucleotide = TCAGATTTCGATTACAAACTGTGCTAG; result = 2.28 z-score
Oligonucleotide = TCAAGGCCAGGGTTTCTGTTGTGCTAG; result = 0.17 z-score
Oligonucleotide = GACGATTTCGGGACTGGAGAGGTGCTA; result = 0.0422 z-score
Oligonucleotide = GACGGACTGGGACTGGGTACGTGCTAG; result = -0.366 z-score
Oligonucleotide = TTCATTTTCCAAATGCCCTCGTGCTAG; result = 1.44 z-score
Oligonucleotide = TTAGATATCGGGGATCGATTAGTGCTA; result = 0.316 z-score
Oligonucleotide = GTAGATATCGGGACTGGATTAGTGCTA; result = -0.128 z-score
Oligonucleotide = TCAATTTCCATTTTCTAACTGTGCTAG; result = 2.65 z-score
Oligonucleotide = TTAGTTCTCCTTTTCCTTTAGTGCTAG; result = 2.39 z-score
Oligonucleotide = TTAGGACTGCTTCTACTTTAGTGCTAG; result = 0.329 z-score
Oligonucleotide = TTAGGTATCCTACTGTTTTAGTGCTAG; result = 0.291 z-score
Oligonucleotide = TTAGATATCAGTTACGATTAGTGCTAG; result = 0.544 z-score
Oligonucleotide = TCATTTTTATCAATCATACTGTGCTAG; result = 0.876 z-score
Oligonucleotide = TCAGCCCTCACCATCATACTGTGCTAG; result = -0.627 z-score
Oligonucleotide = TTTGGTTTCGACACTGGGTTAGTGCTA; result = 4.7 z-score
Oligonucleotide = AGTATGTTCACTATTTAAGAGTGCTAG; result = 0.328 z-score
Oligonucleotide = GACAATTTCGGGACTGGAGACGTGCTA; result = 0.303 z-score
Oligonucleotide = TTAGGTTTCGACTTTCGGATAGTGCTA; result = 11.7 z-score
Oligonucleotide = CTCTCTTTCCAACTCTGTTTGTGCTAG; result = 2.24 z-score
Oligonucleotide = TTAGGTCTCCTACGGCTTTAGTGCTAG; result = -0.421 z-score
Oligonucleotide = CACGATTTCAGTATCGAGACGTGCTAG; result = 0.523 z-score
Oligonucleotide = GACGATTTCAGTTTCGCGACGTGCTAG; result = 2.02 z-score
Oligonucleotide = TTAGGATCCGGTTTCGGTTAGTGCTAG; result = 9.54 z-score
Oligonucleotide = TTGGGACTGGGGTTTCGGTTAGTGCTA; result = 4.97 z-score

Study 2
Target: RNA binding protein fox-1 homolog 2, RRM domain, GST-SBP tag (RBFOX2, Homo sapiens, UniProt O43251-10, residues 100-194)
Technique: RNA Bind-n-Seq
Molecule type: RNA
Matrix: in vitro
Tested at: 365 nM
Setting: natural RNA segment, single round, ends assumed
Reference: no-protein control
Reading: higher = stronger binding
Quantity: RBNS enrichment (R)
Construct (chain): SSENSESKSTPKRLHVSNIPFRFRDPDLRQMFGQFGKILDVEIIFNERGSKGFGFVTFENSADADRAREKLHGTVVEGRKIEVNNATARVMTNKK
Oligonucleotide = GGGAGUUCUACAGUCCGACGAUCCUUGCUGUUAAGUGGUCUUCCCCCAUUGGGAUCCUACAGUCCCACAGAUGAAAGCACAGUAGUAGCUGACAGCUGGCUUAUUUGGUCCCUCGGCAUCUCUCGUAUGUGGCUGGAAUUCUCGGGUGCCAA; result = 0.352
Oligonucleotide = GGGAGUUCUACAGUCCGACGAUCCAUCACCUUUGCCCUGCUCUGGGGGACAGACAUGACAGUAAAAGUGUCCCGGGACUCUUUCCGUUCAUUGUUUGCUUUUUUGGCAACUAGGAGGUUGGCACUAAGACCCAUGGAAUUCUCGGGUGCCAA; result = 0.239
Oligonucleotide = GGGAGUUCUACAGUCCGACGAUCUUCCCGGAUCCUCCUCGCUGGGCCCGAGUGUGGCAGCAGCUCGGGUCGGGGCCUUGGUUUCCAGAGGGUCCGGGCUGGUUUGACUGCUUUAACUAGGAUUAGUUCAGUGGUGGAAUUCUCGGGUGCCAA; result = 0.442
Oligonucleotide = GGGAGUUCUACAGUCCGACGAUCUUUAUUAGAUAUGAGUUGUUUUCAGACUCAGACUCCAUUUGUAUUAUAGUCUAAUAUACAGGGUAGCAGGUACCACUGAUUUGGAGAUAUUUAUGGGGGGAGAACUUACAUGGAAUUCUCGGGUGCCAA; result = 0.44
Oligonucleotide = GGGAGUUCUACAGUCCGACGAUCAGUGCUGUUACUUGGCCACUAAGAUGUGUAAAAUGGACUGAAAUGCUCCAUCAUGAAGACUUGCUUCCCCACCAAAGAUGUCCUGGGAUUCUGCUGGAUCUCAAAGAUGUUGGAAUUCUCGGGUGCCAA; result = 0.628
Oligonucleotide = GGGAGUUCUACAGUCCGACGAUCAUGCCUUGGCACUGACACCGUCCUGGCGCUGCCCAAGGCUAUACCUGUGUAGCCCUUUGGAUUCAGCCUGUGGAUGUCCACUCAUCCCUGCAGGCUCCUACUGCCCAUGCUGGAAUUCUCGGGUGCCAA; result = 0.307
Oligonucleotide = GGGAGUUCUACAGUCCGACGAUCAAGGCAGCAAGACUUCCUGCUAUCCAAGCCCAUGGAGGAAAGUUACUGCUGAGGACCCACCCAAUGGAAGGAUUCUUCUCAGCCUUGACCCUGGAGCACUGGGAACAACUUGGAAUUCUCGGGUGCCAA; result = 0.231
Oligonucleotide = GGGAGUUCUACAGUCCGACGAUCUCAGCUAUGGCUUGACGUAAUCGCUUUUAGACCCAGGUUGGCUUCCCUUCAUUAAGCUAUGAUCCUCCACCCCAUUUUUUUUUUUUUUAAUUUGGAGUGGGAGGGAGGGGUGGAAUUCUCGGGUGCCAA; result = 0.239
Oligonucleotide = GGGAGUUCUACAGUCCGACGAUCACUCGGAAUAAAGGAUGACUUUGGCGGAUGUCGCCCCUGCAAGGAGGUGGCUGAAAGUGGUGUCCAGAUGUCCUUCCGAGGACUCGGCGUAUCCGCCACCAGGGACAUUAUGGAAUUCUCGGGUGCCAA; result = 0.206
Oligonucleotide = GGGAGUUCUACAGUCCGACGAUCGGUGAUAAUAAGAUAUAGAAUGCUUUUGUUCAGUUCUCCCCUUACAAAGAAAGUCCCUUGCUUGUCUGCACCAGGGAAGCAAGAGCUCCCAGUGACACCACCCCCUGCCUUGGAAUUCUCGGGUGCCAA; result = 1.01
Oligonucleotide = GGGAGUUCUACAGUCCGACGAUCGUUAAUAAACUUUACACAGUAUAUAGACACAUUUUCUGCAAUGUACUGACAUCAGUGUCCAAUAUAUGGUAUAUUUUUAUAAUAUAAUAUCCUAGUAUGAUUGGUUAUAUUGGAAUUCUCGGGUGCCAA; result = 0.866
Oligonucleotide = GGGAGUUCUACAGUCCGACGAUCUGUCUACUGACCCCAACCCUUGAUGAUAUGUAUUUAUUCAUUUGUUAUUUUACCAGCUAUUUAUUGAGUGUCUUUUAUGUAGGCUAAAUGAACAUAGGUCUCUGGCCUCAUGGAAUUCUCGGGUGCCAA; result = 0.655

Study 3
Target: Ras GTPase-activating protein-binding protein 1, full length (G3BP1, Homo sapiens, UniProt Q13283)
Chain of UniProt Q13283 (whole entry, looked up): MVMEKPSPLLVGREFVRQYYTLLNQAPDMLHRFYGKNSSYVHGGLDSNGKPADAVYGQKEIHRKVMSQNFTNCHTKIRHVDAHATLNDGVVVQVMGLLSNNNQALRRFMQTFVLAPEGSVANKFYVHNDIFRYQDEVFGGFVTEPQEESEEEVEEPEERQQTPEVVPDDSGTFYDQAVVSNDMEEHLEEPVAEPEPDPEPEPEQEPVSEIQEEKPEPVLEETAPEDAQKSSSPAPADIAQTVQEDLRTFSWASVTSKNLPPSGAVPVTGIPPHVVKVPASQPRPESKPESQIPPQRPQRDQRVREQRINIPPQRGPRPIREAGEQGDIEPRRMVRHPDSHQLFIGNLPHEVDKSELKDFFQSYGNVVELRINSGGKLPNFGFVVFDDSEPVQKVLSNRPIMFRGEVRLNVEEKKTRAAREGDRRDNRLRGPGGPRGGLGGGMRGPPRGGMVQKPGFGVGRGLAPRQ
Technique: RNA Bind-n-Seq
Molecule type: RNA
Matrix: in vitro
Tested at: 200 nM
Setting: whole 134-nt RNA, ends assumed
With: 150 mM KCl
Reference: input library
Reading: higher = stronger binding
Quantity: log2 enrichment
Oligonucleotide = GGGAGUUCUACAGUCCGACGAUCUCCUGUGCUACACAUCGUAUGUACCGAAUCGGGGUUUGGGGUUUUUGGGGUUUUUGGGGAAAGUAUUAUGUUACGCCGUUCGGAUCUGCAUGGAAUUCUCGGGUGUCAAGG; result = 0.733
Oligonucleotide = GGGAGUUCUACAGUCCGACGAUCCUCAAGUCCUGUGCUACACAUCGUAUGUACCGAAUCGGGUUGGGGUUGGUUGGGAAAGUAUUAUGUUACGCCGUUCGGAUCUGCACUUCCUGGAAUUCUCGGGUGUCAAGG; result = 0.573
Oligonucleotide = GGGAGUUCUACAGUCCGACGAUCUUCCUCAAGUCCUGUGCUACACAUCGUAUGUACCGAAUCGGCGGGCGGCGGAAAGUAUUAUGUUACGCCGUUCGGAUCUGCACUUCCAGCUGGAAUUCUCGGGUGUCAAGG; result = -0.136
Oligonucleotide = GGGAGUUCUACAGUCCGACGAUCGUCCUGUGCUACACAUCGUAUGUACCGAAUCGGGGAAAAAGGGGAAAGGGGAAAGGGGAAAGUAUUAUGUUACGCCGUUCGGAUCUGCACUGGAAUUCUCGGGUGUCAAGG; result = 0.652
Oligonucleotide = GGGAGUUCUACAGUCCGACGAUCUGACCUGCACGGACAUCAACACCCUGACAAGGCAGAAGGAACUUCUCCUGCAGAAGCUGAGCACAUUUGAGGAGACCAACCGCACCCUCCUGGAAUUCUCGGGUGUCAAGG; result = 0.962
Oligonucleotide = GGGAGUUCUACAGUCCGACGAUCUCAAGUCCUGUGCUACACAUCGUAUGUACCGAAUCGGAAAAAAAGGUGGAAAGGAAAGUAUUAUGUUACGCCGUUCGGAUCUGCACUUCCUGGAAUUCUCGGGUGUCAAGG; result = -0.902
Oligonucleotide = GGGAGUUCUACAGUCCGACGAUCUUCAUUCCCAAGGGAGGCCAUGUCUGGAGAUAGACCUUGAAUUUAAUAAAUUUUAGGCACUAUACCAUUUCAGUGGAGAAAAUUGUUGGGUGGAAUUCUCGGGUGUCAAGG; result = -1.71
Oligonucleotide = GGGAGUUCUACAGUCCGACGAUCCCUGUGCUACACAUCGUAUGUACCGAAUCGGGGUUUUUGGGGAAAGGGGAAAAAAAGGGGAAAGUAUUAUGUUACGCCGUUCGGAUCUGCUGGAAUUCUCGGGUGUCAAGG; result = 0.189
Oligonucleotide = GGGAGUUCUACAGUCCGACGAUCUGUGCUACACAUCGUAUGUACCGAAUCGGGGAAAAAAAGGGGUUUUUUUGGGGAAAAAGGGGAAAGUAUUAUGUUACGCCGUUCGGAUCUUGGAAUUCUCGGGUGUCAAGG; result = -0.215
Oligonucleotide = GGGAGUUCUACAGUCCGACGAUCGCAGGAAGUAAAAACAAAUGGAAAUGCUUCAAAUAGUGGCAGGGGUGGGGGUUGCUAAGGAAAGGGUGGGAUGGGAGUGGGUAAAGAGUUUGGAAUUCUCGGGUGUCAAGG; result = 1.18

Study 4
Target: CCNB2, cyclin fold, Cln2 fusion (human)
Technique: yeast growth competition, sequencing
Matrix: yeast
Setting: weak parent motif
Reference: not given
Reading: higher = stronger binding
Quantity: normalised enrichment score
Parent: E2F1 docking peptide (human); PPVKRRLDLETDH; partner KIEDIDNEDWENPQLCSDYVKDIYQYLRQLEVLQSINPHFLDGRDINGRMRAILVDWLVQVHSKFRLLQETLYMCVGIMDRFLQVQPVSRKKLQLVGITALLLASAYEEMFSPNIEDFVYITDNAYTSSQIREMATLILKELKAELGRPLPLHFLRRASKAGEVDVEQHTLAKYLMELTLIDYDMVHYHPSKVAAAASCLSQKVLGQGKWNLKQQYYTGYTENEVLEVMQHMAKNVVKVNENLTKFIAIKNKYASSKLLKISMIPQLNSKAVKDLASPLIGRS
Variant = H13Q; result = 0.139
Variant = R5A; result = 0.326
Variant = D8P; result = -0.00393
Variant = T11Q; result = 0.463
Variant = L7K; result = 0.137
Variant = E10D; result = 1.14
Variant = V3D; result = -0.381
Variant = L7Y; result = 0.138
Variant = P1N; result = 0.412
Variant = T11G; result = 0.159
Variant = R6N; result = -0.0626
Variant = E10R; result = 0.294
Variant = H13A; result = 0.199
Variant = L7S; result = -0.0058
Variant = D12E; result = 0.256
Variant = P2E; result = 0.505

Repeated from above (study 1):
Oligonucleotide = TTAGTTCTCCTTTTCCTTTAGTGCTAG; result = 2.39 z-score
Oligonucleotide = GACGGACTGGGACTGGGTACGTGCTAG; result = -0.366 z-score
Oligonucleotide = TCAGATTTCGATTACAAACTGTGCTAG; result = 2.28 z-score
Oligonucleotide = TTGGGACTGGGGTTTCGGTTAGTGCTA; result = 4.97 z-score
Oligonucleotide = TCAAGGCCAGGGTTTCTGTTGTGCTAG; result = 0.17 z-score
Oligonucleotide = AGTATGTTCACTATTTAAGAGTGCTAG; result = 0.328 z-score
Oligonucleotide = TTAGGACTGCTTCTACTTTAGTGCTAG; result = 0.329 z-score
